Measurements from different studies.
Protocols differ between the studies behind these lines. Values joined by “and” are separate records of one study, mostly repeats; a detail may differ. Numbers after ± are the reported error.

SMILES = O=C(Nc1ccc(Cl)cc1)C1CCN(Cc2ccccc2)C1 (stereo not drawn); target = sodium channel Nav1.4 (frog); test = tonic block of sodium current, vaseline-gap voltage clamp; test system = Pelophylax lessonae semitendinosus fibres; setting = 10 °C; IC50 = 35.7 ± 5.6 µM
SMILES = [Ca+2]; target = rod cGMP-gated channel, Ambystoma tigrinum; test = ion current, inside-out patch clamp; setting = after EDTA/EGTA, -40 mV, together with: calmodulin 200 nM, cGMP 20 µM; IC50 = 0.632 µM and 0.679 µM
SMILES = CC(C)(O)C(O)Cc1c(O)cc(/C=C/c2ccc(O)cc2)cc1O (stereo not drawn); target = iNOS, mouse; test = NO production, inhibitor; test system = RAW264.7; setting = together with: LPS; IC50 = > 25 µg/mL
SMILES = CC1=C(/C=C/C(C)=C/C=C/C(C)=C/C=O)C(C)(C)CCC1; target = rod CNG channel (Ambystoma tigrinum); test = ion current, inhibitor, inside-out patch clamp; setting = pH 7.2, room temperature, together with: cGMP 2 mM; IC50 = 0.25 µM
SMILES = Brc1ccc(SSc2ccc(Br)cc2)cc1; target = tubulin; IC50 = 5.1 ± 0.5 µM
SMILES = C=C(C)C(=O)OCC(C)O (stereo not drawn); target = cysteine peptide Ac-RFAACAA-COOH; test = peptide depletion, DPRA RapidFire-MS/MS; setting = 24 h, pH 7.5, room temperature, together with: 5.0 µM cysteine peptide; IC50 = inactive
SMILES = O=c1c(O)c(-c2ccc(O)cc2O)oc2cc(O)cc(O)c12; target = class I HDAC; test = enzyme activity; test system = bovine heart lysate; IC50 = 45 µM
SMILES = Brc1cccc(SSc2cccc(Br)c2)c1; target = tubulin; IC50 = 4 ± 0.5 µM
SMILES = Cc1ccc(S(=O)(=O)N[C@@H](CCCCN)C(=O)CCl)cc1; target = E1 Blattella germanica protease; test = covalent inhibitor; setting = 1 h preincubation, together with: QAR-AMC; IC50 = 32 ± 3 µM
SMILES = O=c1c(O)c(-c2cc(O)c(O)c(O)c2)oc2cc(O)cc(O)c12; target = class I HDAC; test = enzyme activity; test system = bovine heart lysate; IC50 = 20 µM
SMILES = Clc1cccc(SSc2cccc(Cl)c2)c1; target = tubulin; IC50 = 3.1 ± 0.4 µM
SMILES = O=C1Nc2ccccc2/C1=C1/Nc2ccccc2C1=O; target = class I HDAC; test = enzyme activity, inhibitor; IC50 = 15 µM
SMILES = Brc1ccccc1SSc1ccccc1Br; target = tubulin; IC50 = 1.2 ± 0.1 µM
SMILES = Cc1c(C)c(NC(=O)C2CCN(Cc3ccccc3)C2)c(C)c(C)c1Cl (stereo not drawn); target = sodium channel Nav1.4 (frog); test = tonic block of sodium current, vaseline-gap voltage clamp; test system = Pelophylax lessonae semitendinosus fibres; setting = 10 °C; IC50 = 35.8 ± 4.1 µM
SMILES = Oc1ccc(/C=C/c2ccccc2)cc1O; target = iNOS, mouse; test = NO production, inhibitor; test system = RAW264.7; setting = together with: LPS; IC50 = > 25 µg/mL
SMILES = Nc1nc2ccc(OC(F)(F)F)cc2s1; target = TRPM4 (EGFP-tagged); test = ion current, inhibitor, whole-cell nystatin-patch clamp; setting = extracellular Ca2+ 2 mM, -50 mV, together with: A23187 20 µM, Cs+ carrier; IC50 = 31.4 µM
SMILES = NC[C@H]1O[C@H](O[C@H]2[C@H](O)[C@@H](O[C@H]3O[C@H](CO)[C@@H](O)[C@H](N)[C@H]3O)[C@H](N)C[C@@H]2N)[C@H](N)C[C@@H]1O; target = HIV-1 nucleocapsid protein-SL3 RNA complex; test = complex dissociation, ESI-FTMS; setting = preformed complex ~3.5 µM; IC50 = 321 ± 14.5 µM
SMILES = CC(CC=O)CCCC(C)(C)O (stereo not drawn); target = cysteine peptide Ac-RFAACAA-COOH; test = peptide depletion, DPRA RapidFire-MS/MS; setting = 24 h, pH 7.5, room temperature, together with: 5.0 µM cysteine peptide; IC50 = inactive
SMILES = O=c1c(O)c(-c2ccc(O)c(O)c2)oc2cc(O)cc(O)c12; target = class I HDAC; test = enzyme activity; test system = bovine heart lysate; IC50 = 36 µM
SMILES = C=CC(=O)OCC; target = cysteine peptide Ac-RFAACAA-COOH; test = peptide depletion, DPRA RapidFire-MS/MS; setting = 24 h, pH 7.5, room temperature, together with: 5.0 µM cysteine peptide; IC50 = inactive
SMILES = Cc1cc(O)c2c(c1)C(=O)c1cc(O)cc(O)c1C2=O; target = class I HDAC; test = enzyme activity; test system = bovine heart lysate; IC50 = 22 µM
SMILES = O=C(Nc1ccccc1)C1CCN(Cc2ccccc2)C1 (stereo not drawn); target = sodium channel Nav1.4 (frog); test = tonic block of sodium current, vaseline-gap voltage clamp; test system = Pelophylax lessonae semitendinosus fibres; setting = 10 °C; IC50 = 30.2 ± 5.3 µM
SMILES = O=c1[nH]sc2ccccc12; target = cysteine peptide Ac-RFAACAA-COOH; test = peptide depletion, DPRA RapidFire-MS/MS; setting = 24 h, pH 7.5, room temperature, together with: 5.0 µM cysteine peptide; IC50 = 0.865 µM
SMILES = Clc1ccccc1SSc1ccccc1Cl; target = tubulin; IC50 = 1.4 ± 0.2 µM
SMILES = O=c1cc(-c2ccccc2)oc2cc(O)c(O)c(O)c12; target = class I HDAC; test = enzyme activity; test system = bovine heart lysate; IC50 = 45 µM
SMILES = CN1CCc2c(c3ccccc3n2Cc2ccc(C(=O)NO)cc2)C1; target = histone deacetylase, mouse; test = inhibitor; test system = GL261 cell nuclear extract; IC50 = 1.32 µM
SMILES = CC(C)/C=C/c1c(O)cc(/C=C/c2ccccc2)cc1O; target = iNOS, mouse; test = NO production, inhibitor; test system = RAW264.7; setting = together with: LPS; IC50 = > 25 µg/mL
SMILES = COc1ccc([C@@H]2CC(=O)c3c(O)cc(O)cc3O2)cc1O; target = human intestinal sulfotransferases; test = DHEA sulfation, radiometric; test system = human intestine cytosol; setting = together with: DHEA 2 µM; IC50 = 91 ± 9.5 µM
SMILES = O=C(OCc1ccccc1)c1ccccc1; target = cysteine peptide Ac-RFAACAA-COOH; test = peptide depletion, DPRA RapidFire-MS/MS; setting = 24 h, pH 7.5, room temperature, together with: 5.0 µM cysteine peptide; IC50 = inactive
SMILES = Cc1cc(N)c2ccccc2[n+]1CCCCCCCCCC[n+]1c(C)cc(N)c2ccccc21; target = CNG channel S4/S5-CNGA1, Bos taurus; test = cGMP-activated current, blocker, inside-out patch clamp; setting = pH 7.2, room temperature, 0 mV holding, steps to +20 mV, together with: cGMP 2 mM; IC50 = 0.36 ± 0.0087 µM
SMILES = CCO/C=C1\N=C(c2ccccc2)OC1=O; target = cysteine peptide Ac-RFAACAA-COOH; test = peptide depletion, DPRA RapidFire-MS/MS; setting = 24 h, pH 7.5, room temperature, together with: 5.0 µM cysteine peptide; IC50 = 9.09 µM
SMILES = O=c1cc(-c2ccc(O)c(O)c2)oc2cc(O)cc(O)c12; target = CYP3A; test = inhibitor; test system = pooled human liver microsomes; setting = no preincubation; IC50 = 12.4 µM
SMILES = Cc1cccc(C)c1NC(=O)C1CCCN1Cc1ccccc1 (racemic); target = sodium channel Nav1.4 (frog); test = tonic block of sodium current, vaseline-gap voltage clamp; test system = Pelophylax lessonae semitendinosus fibres; setting = 10 °C; IC50 = 82.2 ± 4.3 µM
SMILES = Clc1ccccc1; target = cysteine peptide Ac-RFAACAA-COOH; test = peptide depletion, DPRA RapidFire-MS/MS; setting = 24 h, pH 7.5, room temperature, together with: 5.0 µM cysteine peptide; IC50 = inactive
SMILES = Cc1cccc(C)c1NC(=O)C1CCN(Cc2ccccc2)C1 (racemic); target = sodium channel Nav1.4 (frog); test = tonic block of sodium current, vaseline-gap voltage clamp; test system = Pelophylax lessonae semitendinosus fibres; setting = 10 °C; IC50 = 27.5 ± 1.1 µM
SMILES = CCCCCCCCCCCCCCCC(=O)Cl; target = cysteine peptide Ac-RFAACAA-COOH; test = peptide depletion, DPRA RapidFire-MS/MS; setting = 24 h, pH 7.5, room temperature, together with: 5.0 µM cysteine peptide; IC50 = inactive

For quick reference, copied from above:
SMILES = C=CC(=O)OCC; target = cysteine peptide Ac-RFAACAA-COOH; test = peptide depletion, DPRA RapidFire-MS/MS; setting = 24 h, pH 7.5, room temperature, together with: 5.0 µM cysteine peptide; IC50 = inactive
SMILES = Cc1cc(O)c2c(c1)C(=O)c1cc(O)cc(O)c1C2=O; target = class I HDAC; test = enzyme activity; test system = bovine heart lysate; IC50 = 22 µM
SMILES = O=C(Nc1ccccc1)C1CCN(Cc2ccccc2)C1 (stereo not drawn); target = sodium channel Nav1.4 (frog); test = tonic block of sodium current, vaseline-gap voltage clamp; test system = Pelophylax lessonae semitendinosus fibres; setting = 10 °C; IC50 = 30.2 ± 5.3 µM
SMILES = O=c1[nH]sc2ccccc12; target = cysteine peptide Ac-RFAACAA-COOH; test = peptide depletion, DPRA RapidFire-MS/MS; setting = 24 h, pH 7.5, room temperature, together with: 5.0 µM cysteine peptide; IC50 = 0.865 µM
SMILES = Clc1ccccc1SSc1ccccc1Cl; target = tubulin; IC50 = 1.4 ± 0.2 µM
